Literature values that unrelated publications cite.
Compare with care: the assays were run in different laboratories. ± gives the spread as reported.
B1: cyanovirin-N; sequence looked up; chain LGKFSQTCYNSAIQGSVLTSTCERTNGGYNTSSIDLNSVIENVDGSLKWQPSNFIETCRNTQLAGSSELAAECKTRAQQFVSTKINLDDHIANIDGTLKYE

| Substance | tested on | test | test system | setting | how to read | endpoint | result |
| --- | --- | --- | --- | --- | --- | --- | --- |
| C[C@@H]1CCO[C@H]2Cn3cc(C(=O)NCc4ccc(F)cc4F)c(=O)c(O)c3C(=O)N12 | HIV-1 integrase S230N | viral replication | HIV-1 | single-round vector | – | EC50 | 0.0079 ± 0.0013 µM |
| CCC(CC)COC(=O)[C@H](C)N[P@](=O)(OC[C@H]1O[C@@](C#N)(c2ccc3c(N)ncnn23)[C@H](O)[C@@H]1O)Oc1ccccc1 | Ebola virus | viral replication | – | – | – | EC50 | 0.06 to 0.14 µM |
| C[C@@H]1Cc2ccc(C(=O)N[C@@H](Cc3ccccc3)C(=O)O)c(O)c2C(=O)O1 | chicken embryonic meningeal fibroblasts | – | – | – | reference: compound over ochratoxin A | cytotoxic concentration ratio | 19 |
| CN(C)CCCN1c2ccccc2Sc2ccc(Cl)cc21 | SARS-CoV-2 | cytopathic effect | Vero E6 cells | 72 h | – | EC50 | 11 µM |
| CCN(CCO)CCCC(C)Nc1ccnc2cc(Cl)ccc12 (stereo not shown) | SARS-CoV | cytopathic effect | Vero E6 | – | – | EC50 | 7.97 µM |
| C[C@@H]1C[C@H]2[C@@H]3CCC4=CC(=O)C=C[C@]4(C)[C@@]3(F)[C@@H](O)C[C@]2(C)[C@@]1(O)C(=O)CO | – | – | human | 20 mg | – | Cmax | 0.257 µg/mL |
| CC(C)(C)[C@H](NC(=O)C(F)(F)F)C(=O)N1C[C@H]2[C@@H]([C@H]1C(=O)N[C@H](C#N)C[C@@H]1CCNC1=O)C2(C)C | SARS-CoV-2 | viral replication | Vero | – | – | EC50 | 3.7 ± 0.1 µM |
| CC[C@@H](C)[C@H]1O[C@]2(CC[C@@H]1C)C[C@@H]1C[C@@H](C/C=C(\C)[C@@H](O[C@H]3C[C@H](OC)[C@@H](O[C@H]4C[C@H](OC)[C@@H](O)[C@H](C)O4)[C@H](C)O3)[C@@H](C)/C=C/C=C3\CO[C@@H]4[C@H](O)C(C)=C[C@@H](C(=O)O1)[C@]34O)O2 | SARS-CoV-2 | cytopathic effect | Vero E6 cells | 72 h | – | EC50 | 1.3 µM |
| C[C@H]1CO[C@@H]2Cn3cc(C(=O)NCc4ccc(F)cc4F)c(=O)c(O)c3C(=O)N12 | HIV-1 | viral replication, single-round vector infection | IN R263K | – | – | EC50 | 0.0071 ± 0.0001 µM |
| Fc1ccc([C@@H]2CCNC[C@H]2COc2ccc3c(c2)OCO3)cc1 | Ebola virus | viral replication | Vero E6, eGFP reporter | – | – | EC50 | 27 µM |
| CC(=O)Oc1ccccc1C(=O)Nc1ncc([N+](=O)[O-])s1 | SARS-CoV-2 | cytopathic effect | Vero E6 cells | 72 h | – | EC50 | 6.3 µM |
| B1 (cyanovirin-N) | Ebola virus | viral replication | – | – | – | EC50 | 0.1 µM |
| C[C@H](NC(=O)[C@@H](c1cccnc1)N(C(=O)c1ccco1)c1ccc(-c2ccccc2)cc1)c1ccccc1 | SARS-CoV-2 | antiviral activity | – | – | – | EC50 | 1.3 µM |

A few entries again:
| Substance | tested on | test | test system | setting | how to read | endpoint | result |
| --- | --- | --- | --- | --- | --- | --- | --- |
| CCC(CC)COC(=O)[C@H](C)N[P@](=O)(OC[C@H]1O[C@@](C#N)(c2ccc3c(N)ncnn23)[C@H](O)[C@@H]1O)Oc1ccccc1 | Ebola virus | viral replication | – | – | – | EC50 | 0.06 to 0.14 µM |
| C[C@@H]1Cc2ccc(C(=O)N[C@@H](Cc3ccccc3)C(=O)O)c(O)c2C(=O)O1 | chicken embryonic meningeal fibroblasts | – | – | – | reference: compound over ochratoxin A | cytotoxic concentration ratio | 19 |
